Assay results gathered from unrelated publications.
Parts stem from different laboratories: compare values within a part only.

Block 1
Target: Death-associated protein kinase 3 (DAPK3, Homo sapiens, UniProt O43293)
UniProt O43293, sequence (whole entry, looked up): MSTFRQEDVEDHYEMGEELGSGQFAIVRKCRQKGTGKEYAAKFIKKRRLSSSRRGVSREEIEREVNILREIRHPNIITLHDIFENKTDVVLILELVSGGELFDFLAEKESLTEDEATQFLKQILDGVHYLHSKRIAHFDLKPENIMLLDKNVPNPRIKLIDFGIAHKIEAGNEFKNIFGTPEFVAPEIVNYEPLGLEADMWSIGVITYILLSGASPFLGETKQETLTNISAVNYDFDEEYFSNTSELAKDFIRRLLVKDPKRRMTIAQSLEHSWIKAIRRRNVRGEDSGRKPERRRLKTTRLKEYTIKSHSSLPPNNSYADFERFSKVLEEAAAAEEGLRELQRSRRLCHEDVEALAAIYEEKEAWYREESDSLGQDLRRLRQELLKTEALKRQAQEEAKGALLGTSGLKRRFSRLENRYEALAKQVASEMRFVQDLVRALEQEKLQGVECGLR
Effect on: enzyme activity
Action: inhibitor
Concentration: 0.5 µM
Reference: control
`O=C1C(Cl)=C(N2C(=O)CCC2=O)C(=O)c2ccccc21` gave a remaining activity of 114%.
With `C[C@@H]1CCN(C(=O)CC#N)C[C@@H]1N(C)c1ncnc2[nH]ccc12` the remaining activity was 106%.
`CN(C)C[C@H]1CCn2c(c(C3=C(c4cn(C)c5ccccc45)C(=O)NC3=O)c3ccccc32)C1` gave a remaining activity of 95.2%.
With `O=C(NC(NC(=S)Nc1ccc(F)c([N+](=O)[O-])c1)C(Cl)(Cl)Cl)C(c1ccccc1)c1ccccc1` (centres unmarked) the remaining activity was 103%.
For `c1ccc(-c2cnc(Nc3ccc(OCCN4CCCC4)cc3)s2)cc1`, the remaining activity was 105%.
With `Nc1cccc(-c2cc3c(Oc4cccc(O)c4)ncnc3[nH]2)c1` the remaining activity was 94%.

Block 2
Cell line: Huh-7
Concentration: 10 µM
Time: 24 h
For `C[N+]1(CCCCC[N+]2(C)CCCC2)CCCC1`, the viability was 102%.
`O=C1c2ccccc2C(=O)C1c1ccc(Br)cc1` gave a viability of 100%.
`CCCCCCCCCCCCCCCC[N+](C)(C)C` has a viability of 77%.
With `C[C@H]1c2cccc(O)c2C(=O)C2=C(O)[C@]3(O)C(=O)C(C(N)=O)=C(O)[C@@H](N(C)C)[C@@H]3[C@@H](O)[C@@H]21` the viability was 91.3%.
`CC(C)NCC(O)COc1ccc(COCCOC(C)C)cc1` (centres unmarked) has a viability of 104%.
`COc1c2occc2cc2ccc(=O)oc12` gave a viability of 100%.
The viability of `NC(N)=O` is reported as 101%.
With `CCN(CCCCOC(=O)c1ccc(OC)c(OC)c1)C(C)Cc1ccc(OC)cc1` (centres unmarked) the viability was 98.3%.
The viability of `NC(=O)c1cc[n+](CC2=C(C(=O)O)N3C(=O)[C@@H](NC(=O)[C@@H](c4ccccc4)S(=O)(=O)[O-])[C@H]3SC2)cc1` is reported as 98.2%.
For `CCCCC(=O)O[C@H]1CC[C@H]2[C@@H]3CCc4cc(O)ccc4[C@H]3CC[C@]12C`, the viability was 103%.
With `C[N+](C)(C)CCOP(=O)(O)OP(=O)([O-])OC[C@H]1O[C@@H](n2ccc(N)nc2=O)[C@H](O)[C@@H]1O` the viability was 55.6%.

Block 3
Target: Sigma non-opioid intracellular receptor 1 (SIGMAR1, Homo sapiens, UniProt Q99720)
UniProt Q99720, sequence (whole entry, looked up): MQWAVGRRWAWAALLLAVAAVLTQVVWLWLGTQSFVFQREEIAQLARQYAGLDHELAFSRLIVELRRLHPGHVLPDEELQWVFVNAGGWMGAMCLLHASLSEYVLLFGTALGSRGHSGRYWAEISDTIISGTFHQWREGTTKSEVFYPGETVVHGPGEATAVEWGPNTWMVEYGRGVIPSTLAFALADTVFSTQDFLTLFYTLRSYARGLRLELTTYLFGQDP
Effect on: binding
Method: radioligand binding
Concentration: 10 µM
The inhibition of `O=C([C@H]1C[C@H](O)CN1c1ccc(Cl)cc1)N1CC2COCC(C1)N2Cc1ccc(Cl)cc1` is reported as 69.5%.
With `CS(=O)(=O)NCC[C@H](NC(=O)c1cncc2c1cnn2-c1ccc(F)cc1)c1ccnc(S(C)(=O)=O)c1` the inhibition was 7.62%.
`CC(C)(O)c1cncc(-c2nc3ccc(F)cc3n2C2CC2)c1` has an inhibition of 27.7%.
With `O=C(Nc1cccnn1)N1CCC(=Cc2cccc(Oc3ccc(C(F)(F)F)cn3)c2)CC1` the inhibition was 88.5%.
The inhibition of `O=C1c2ccc(Nc3ccc(F)cc3F)cc2CCc2ccc(OC[C@H](O)CO)cc21` is reported as 48.5%.
For `CCOC(=O)c1cc2cc(-c3cc(C(=O)NCc4ccc(C(=O)O)cc4)nn3C)ccc2[nH]1`, the inhibition was 14.6%.
`CC(=O)N1CCC(c2ccc(C(=O)NC(=N)N)cc2C(F)(F)F)CC1` has an inhibition of -27.9%.
`CN([C@@H]1CCc2c(CC(=O)O)c3cc(S(C)(=O)=O)ccc3n2C1)S(=O)(=O)c1ccc(F)cc1` has an inhibition of -13.9%.
`Cc1cc(-n2nc(Cc3cc(F)cc(C(F)(F)F)c3)nc2C)ccc1C(N)=O` has an inhibition of 5.85%.
The inhibition of `Cc1nc(N2CC[C@@H](O)C2)ncc1-c1cc(C(F)(F)F)cc2[nH]ncc12` is reported as 45.5%.
With `Cc1c(NC(=O)c2cc(C(N)=O)nc3cc(F)ccc23)c(C(F)(F)F)nn1Cc1ccc(C(C)(C)C)cc1` the inhibition was 6.28%.
The inhibition of `C[C@H](NC(=O)c1cnc2n1[C@](C)(Cc1ccc(C#N)cc1)C(=O)N2c1cc(Cl)c(F)c(Cl)c1)C(=O)NC1(c2ccccn2)CC1` is reported as -6.44%.
`Cc1c(N2CCCC2)nc2ccc(Br)cc2c1C(=O)NC[C@H](CCC(=O)O)c1ccccc1Cl` gave an inhibition of -18.5%.

Block 4
Host: human
Sample: microsomes or S9
Concentration: 2 µM
Time: 0.5 h
The remaining compound of `Cc1c(O)ccc2c(CSc3n[nH]c4nc5ccccc5n34)cc(=O)oc12` is reported as 3.4%.
The remaining compound of `CS(=O)(=O)N1CCC[C@@H]1CNc1ncnc2nc[nH]c12` is reported as 94.3%.
With `Cc1cccc(N2CCN(S(=O)(=O)c3ccc(-c4ccc(=O)[nH]n4)s3)CC2C)c1` (centres unmarked) the remaining compound was 74.7%.
The remaining compound of `Cc1ccc(S(=O)(=O)n2cc(Br)c3c(N4CCC(N5CCOCC5)CC4)ncnc32)cc1` is reported as 18%.
For `COc1ccc(Cl)cc1S(=O)(=O)NCCn1c(-c2ccncc2)nc2ccccc21`, the remaining compound was 25.3%.

Some of these lines once more (block 4):
The remaining compound of `Cc1c(O)ccc2c(CSc3n[nH]c4nc5ccccc5n34)cc(=O)oc12` is reported as 3.4%.
The remaining compound of `CS(=O)(=O)N1CCC[C@@H]1CNc1ncnc2nc[nH]c12` is reported as 94.3%.
With `Cc1cccc(N2CCN(S(=O)(=O)c3ccc(-c4ccc(=O)[nH]n4)s3)CC2C)c1` (centres unmarked) the remaining compound was 74.7%.
The remaining compound of `Cc1ccc(S(=O)(=O)n2cc(Br)c3c(N4CCC(N5CCOCC5)CC4)ncnc32)cc1` is reported as 18%.
